Published values gathered from unrelated publications.
Lines come from different studies, so protocols differ. ± marks the error that the study gave.
UniProt Q04759, sequence (whole entry, looked up): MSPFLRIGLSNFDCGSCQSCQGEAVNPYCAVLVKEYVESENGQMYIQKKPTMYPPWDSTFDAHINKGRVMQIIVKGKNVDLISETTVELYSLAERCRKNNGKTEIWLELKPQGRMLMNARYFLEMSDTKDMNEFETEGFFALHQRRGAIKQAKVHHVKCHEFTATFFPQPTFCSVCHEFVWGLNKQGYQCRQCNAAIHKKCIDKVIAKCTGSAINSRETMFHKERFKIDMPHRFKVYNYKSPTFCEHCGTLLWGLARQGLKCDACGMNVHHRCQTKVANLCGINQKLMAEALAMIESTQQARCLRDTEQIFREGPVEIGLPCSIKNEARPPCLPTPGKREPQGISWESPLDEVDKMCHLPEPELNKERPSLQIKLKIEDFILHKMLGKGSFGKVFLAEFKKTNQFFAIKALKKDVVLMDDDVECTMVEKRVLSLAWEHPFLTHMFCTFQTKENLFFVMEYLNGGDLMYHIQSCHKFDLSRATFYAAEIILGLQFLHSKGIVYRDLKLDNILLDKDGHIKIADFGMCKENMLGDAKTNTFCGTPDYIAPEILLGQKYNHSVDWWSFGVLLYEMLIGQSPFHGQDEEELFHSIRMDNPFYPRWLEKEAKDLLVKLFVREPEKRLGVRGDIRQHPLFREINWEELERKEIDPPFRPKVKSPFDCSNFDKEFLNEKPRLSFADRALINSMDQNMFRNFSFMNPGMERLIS
UniProt Q9Y2J8, sequence (whole entry, looked up): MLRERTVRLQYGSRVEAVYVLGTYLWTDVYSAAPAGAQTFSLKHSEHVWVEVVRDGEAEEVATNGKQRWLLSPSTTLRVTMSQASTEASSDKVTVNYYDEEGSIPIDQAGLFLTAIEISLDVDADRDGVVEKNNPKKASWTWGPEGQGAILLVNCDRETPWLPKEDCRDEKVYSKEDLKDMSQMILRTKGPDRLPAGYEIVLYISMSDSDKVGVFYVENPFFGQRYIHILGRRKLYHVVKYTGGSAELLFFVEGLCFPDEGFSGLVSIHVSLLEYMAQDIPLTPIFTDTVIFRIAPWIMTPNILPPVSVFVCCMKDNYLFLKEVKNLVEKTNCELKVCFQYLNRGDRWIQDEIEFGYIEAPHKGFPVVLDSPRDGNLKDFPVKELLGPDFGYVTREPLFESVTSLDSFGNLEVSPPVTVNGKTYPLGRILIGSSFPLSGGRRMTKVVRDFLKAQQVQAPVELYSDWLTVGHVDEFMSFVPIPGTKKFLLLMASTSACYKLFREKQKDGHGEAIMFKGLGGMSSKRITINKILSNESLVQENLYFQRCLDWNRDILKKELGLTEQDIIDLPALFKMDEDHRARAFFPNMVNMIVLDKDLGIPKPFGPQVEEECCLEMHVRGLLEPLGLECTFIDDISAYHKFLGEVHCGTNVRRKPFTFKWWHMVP
UniProt Q8R146, sequence (whole entry, looked up): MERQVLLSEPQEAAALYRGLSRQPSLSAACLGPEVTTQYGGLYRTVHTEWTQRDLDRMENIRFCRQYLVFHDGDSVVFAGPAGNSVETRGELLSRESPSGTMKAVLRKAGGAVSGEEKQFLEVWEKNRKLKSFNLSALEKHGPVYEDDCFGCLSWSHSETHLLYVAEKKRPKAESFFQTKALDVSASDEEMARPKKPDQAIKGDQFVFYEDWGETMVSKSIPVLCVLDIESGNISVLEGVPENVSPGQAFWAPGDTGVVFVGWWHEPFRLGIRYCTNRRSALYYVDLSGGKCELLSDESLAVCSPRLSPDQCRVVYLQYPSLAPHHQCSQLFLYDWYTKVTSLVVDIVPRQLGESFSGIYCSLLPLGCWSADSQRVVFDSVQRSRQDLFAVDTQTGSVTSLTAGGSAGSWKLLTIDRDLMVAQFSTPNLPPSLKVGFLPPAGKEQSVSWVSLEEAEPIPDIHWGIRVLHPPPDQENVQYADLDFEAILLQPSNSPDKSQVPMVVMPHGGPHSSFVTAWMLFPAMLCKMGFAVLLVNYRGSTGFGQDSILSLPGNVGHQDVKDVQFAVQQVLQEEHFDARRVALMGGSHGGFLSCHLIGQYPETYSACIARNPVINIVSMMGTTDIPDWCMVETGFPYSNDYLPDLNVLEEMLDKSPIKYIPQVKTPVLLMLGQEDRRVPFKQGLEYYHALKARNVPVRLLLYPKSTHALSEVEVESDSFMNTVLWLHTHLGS
UniProt P17948, sequence (whole entry, looked up): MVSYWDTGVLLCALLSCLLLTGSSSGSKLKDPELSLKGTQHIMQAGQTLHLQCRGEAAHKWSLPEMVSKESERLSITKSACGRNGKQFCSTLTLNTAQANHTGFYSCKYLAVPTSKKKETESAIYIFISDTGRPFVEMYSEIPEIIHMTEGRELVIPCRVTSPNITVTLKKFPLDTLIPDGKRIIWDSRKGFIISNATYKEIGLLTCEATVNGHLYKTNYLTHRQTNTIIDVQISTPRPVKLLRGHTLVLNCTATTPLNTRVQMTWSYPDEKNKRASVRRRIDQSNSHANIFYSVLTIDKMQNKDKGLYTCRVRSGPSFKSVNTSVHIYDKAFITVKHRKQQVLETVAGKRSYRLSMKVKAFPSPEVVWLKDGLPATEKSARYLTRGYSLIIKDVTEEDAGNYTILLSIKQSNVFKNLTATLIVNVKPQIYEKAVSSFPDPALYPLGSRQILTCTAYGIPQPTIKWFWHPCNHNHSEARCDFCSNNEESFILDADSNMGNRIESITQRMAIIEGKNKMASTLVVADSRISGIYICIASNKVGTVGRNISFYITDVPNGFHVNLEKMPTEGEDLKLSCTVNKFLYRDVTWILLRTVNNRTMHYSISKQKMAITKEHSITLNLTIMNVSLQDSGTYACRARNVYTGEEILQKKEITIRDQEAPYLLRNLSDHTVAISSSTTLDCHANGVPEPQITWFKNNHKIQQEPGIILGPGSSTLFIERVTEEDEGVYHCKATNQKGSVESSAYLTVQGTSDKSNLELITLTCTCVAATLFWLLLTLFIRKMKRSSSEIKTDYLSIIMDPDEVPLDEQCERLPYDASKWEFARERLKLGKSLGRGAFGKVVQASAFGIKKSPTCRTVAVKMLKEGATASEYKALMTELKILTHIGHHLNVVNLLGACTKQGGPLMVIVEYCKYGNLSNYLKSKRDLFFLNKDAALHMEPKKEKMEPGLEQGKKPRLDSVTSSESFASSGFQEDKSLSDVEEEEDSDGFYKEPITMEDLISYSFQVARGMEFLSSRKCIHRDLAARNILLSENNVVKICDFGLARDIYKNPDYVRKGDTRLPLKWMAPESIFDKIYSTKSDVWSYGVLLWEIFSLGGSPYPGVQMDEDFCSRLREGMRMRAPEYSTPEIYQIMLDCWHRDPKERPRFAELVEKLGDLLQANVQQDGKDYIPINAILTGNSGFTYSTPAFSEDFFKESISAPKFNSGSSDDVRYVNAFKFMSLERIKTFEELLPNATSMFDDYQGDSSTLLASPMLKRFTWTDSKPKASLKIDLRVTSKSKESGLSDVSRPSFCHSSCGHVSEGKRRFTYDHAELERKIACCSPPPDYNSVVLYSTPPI
UniProt P42336, sequence (whole entry, looked up): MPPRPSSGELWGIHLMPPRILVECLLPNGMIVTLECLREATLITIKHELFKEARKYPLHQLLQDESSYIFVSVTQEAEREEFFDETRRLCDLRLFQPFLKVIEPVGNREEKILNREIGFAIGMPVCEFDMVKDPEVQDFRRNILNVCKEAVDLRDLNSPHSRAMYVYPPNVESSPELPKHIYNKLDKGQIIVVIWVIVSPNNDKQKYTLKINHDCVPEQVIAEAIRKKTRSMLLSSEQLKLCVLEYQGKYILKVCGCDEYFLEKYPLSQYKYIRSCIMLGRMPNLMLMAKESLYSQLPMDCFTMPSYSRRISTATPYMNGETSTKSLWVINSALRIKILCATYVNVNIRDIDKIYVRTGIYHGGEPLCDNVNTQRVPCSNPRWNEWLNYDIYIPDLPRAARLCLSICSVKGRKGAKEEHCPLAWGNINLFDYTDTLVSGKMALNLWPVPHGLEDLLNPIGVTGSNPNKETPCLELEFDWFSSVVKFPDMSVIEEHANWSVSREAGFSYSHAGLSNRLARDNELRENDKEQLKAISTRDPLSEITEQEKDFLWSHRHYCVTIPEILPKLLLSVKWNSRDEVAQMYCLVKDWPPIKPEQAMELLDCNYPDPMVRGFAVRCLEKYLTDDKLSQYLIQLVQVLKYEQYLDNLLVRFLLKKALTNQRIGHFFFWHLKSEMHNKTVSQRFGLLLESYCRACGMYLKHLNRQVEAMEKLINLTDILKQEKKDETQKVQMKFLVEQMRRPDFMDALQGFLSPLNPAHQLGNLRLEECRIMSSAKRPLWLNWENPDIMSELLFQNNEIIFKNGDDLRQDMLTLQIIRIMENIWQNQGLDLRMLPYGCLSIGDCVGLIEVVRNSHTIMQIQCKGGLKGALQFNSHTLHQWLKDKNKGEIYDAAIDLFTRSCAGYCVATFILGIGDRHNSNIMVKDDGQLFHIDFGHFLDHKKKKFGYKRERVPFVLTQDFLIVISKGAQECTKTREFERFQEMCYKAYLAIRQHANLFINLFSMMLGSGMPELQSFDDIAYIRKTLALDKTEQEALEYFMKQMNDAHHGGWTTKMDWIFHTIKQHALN
UniProt P15066, sequence (whole entry, unmodified, looked up): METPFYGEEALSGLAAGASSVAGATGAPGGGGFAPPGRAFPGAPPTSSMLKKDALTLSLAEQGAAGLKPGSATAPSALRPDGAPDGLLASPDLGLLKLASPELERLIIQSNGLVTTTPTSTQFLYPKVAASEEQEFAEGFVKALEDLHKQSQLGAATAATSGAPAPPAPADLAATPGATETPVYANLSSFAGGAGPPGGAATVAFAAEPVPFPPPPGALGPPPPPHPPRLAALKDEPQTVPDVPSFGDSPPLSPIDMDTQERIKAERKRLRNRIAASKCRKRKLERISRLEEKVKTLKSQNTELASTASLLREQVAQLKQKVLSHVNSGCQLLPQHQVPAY

`CN(C)CCCSC(=S)N1CCN(C(=O)/C=C/c2coc3ccccc3c2=O)CC1` has an MST response of 841 a.u. (Nucleoprotein (N, Tomato spotted wilt virus, UniProt P25999, R94A); binding, microscale thermophoresis; 7.812 µM; dose series).
`N[C@H](C(=O)N1CCCC1)C1CCN(c2nccc3c(-c4ncc(Cl)cc4Cl)cccc23)CC1` gave a kcat of 0.607 s⁻¹ (PADI2 (Homo sapiens, UniProt Q9Y2J8); enzyme activity; 0.03932 µM, low-affinity site, with: Ca2+ 0.25 mM).
Under “degradation rate constant”, `CC(C)OC(=O)[C@H](C)NP(=S)(Oc1ccccc1)c1ccccc1` (some centres unmarked) is recorded as 0.182 h⁻¹ (CTSA (Homo sapiens, UniProt P10619); substrate, LC-MS/MS; 5 µM, pH 7.4, 37 °C).
For `CC(C)[C@H]1NC(=O)C[C@H]2/C=C/CCSSC[C@@H](NC1=O)C(=O)N[C@H](Cc1cccc3ccccc13)C(=O)NCC(=O)O2`, the inhibition was 2.3% (FLT1 (Homo sapiens, UniProt P17948); enzyme activity, inhibitor; 10 µM).
For `CN(C)[C@H]1C[C@@]23CC[C@@]4(O2)C(=CC[C@]2(C)[C@@H](c5ccc6ccncc6c5)CC[C@H]24)C=C3[C@@H](O)[C@@H]1O`, the inhibition was 20.8% (EEF2K (Homo sapiens, UniProt O00418); ATP probe labelling, inhibitor, KiNativ profiling; 1 µM).
`CS(C)(=O)=Nc1ccc(-c2ccc(-c3nc4cc(O[C@@H]5CO[C@H]6[C@@H]5OC[C@H]6O)[nH]c4cc3F)cc2)cc1` gave an inhibition of 17% (MC3R (Homo sapiens, UniProt P41968); calcium signal, antagonist; 10 µM).
The selectivity ratio of `Fc1cc2nc(NCCCNCc3cc(Cl)cc(Cl)c3)[nH]c2cc1F` is reported as > 704 (MARS2 (Homo sapiens, UniProt Q96GW9); enzyme activity; baseline: human IC50 over T. brucei IC50).
`O=C1NC(=O)c2c1c1cc(F)c[n+]3c1c1c2c2cc(O)ccc2[n]1[Ru-4]312([N]=C=S)[S+]3CC[S+]1CC[S+]2CC3` (centres unmarked) gave a remaining activity of 16% (PRKCQ (Homo sapiens, UniProt Q04759); enzyme activity; 100 nM, human enzyme, with: 10 µM ATP; baseline: untreated).
`C[C@@H](Cc1ccsc1)NC(=O)NC[C@H](Cc1ccc(O)cc1)N(C)C` gave an Emax of 68 ± 3% (Mu-type opioid receptor, with Gi1 (OPRM1, Homo sapiens, UniProt P35372); receptor activation, agonist).
`COc1ccccc1-c1n[nH]c2nc(N[C@H]3CC[C@H](NS(=O)(=O)CC(C)C)CC3)ncc12` gave a remaining binding of 13% (cdc2-related kinase 12 (Leishmania donovani, UniProt A0A3S7WQK2); competitor, bead pull-down competition; Leishmania donovani extract; 0.08 µM; baseline: vehicle).
`CC[C@H](C)[C@H](NC(=O)[C@@H](NC(=O)[C@@H](NC(=O)[C@H](Cc1ccccc1)NC(=O)[C@H](C)NC(=O)[C@H](CCCNC(=N)N)NC(=O)CNC(=O)[C@@H]1CCCN1C(=O)CNC(=O)[C@@H](N)CCCCNC(=O)c1ccc2c(c1)C(=O)OC21c2ccc(N(C)C)cc2Oc2cc(N(C)C)ccc21)C(C)C)[C@@H](C)O)C(=O)O` — result for “dissociation rate constant”: < 1e-05 s⁻¹ (H-2 class I histocompatibility antigen, D-D alpha chain, 18 (H2-D1, Mus musculus, UniProt P01900); peptide dissociation from free MHC-I, fluorescence anisotropy and NMR; H-2D murine MHC-I, human β2m).
Under “ratio of ratios”, `CC(C)CC(O)(CC(C)C)c1cn(C(=O)N2CCCC2)nn1` is recorded as 0 (Acylamino-acid-releasing enzyme (Apeh, Mus musculus, UniProt Q8R146); enzyme activity, inhibitor, measured: Apeh; mouse, brain; i.p., 0.8 mg/kg, 4 h, protein level; baseline: vehicle).
`CCOC(=O)[C@@H]1Cc2c(cc([N+](=O)[O-])cc2[N+](=O)[O-])[C@H](O)[C@]12C(=O)Nc1ccc(Br)cc12` gave a remaining binding of 100% (PIK3CA (Homo sapiens, UniProt P42336); binding, competition with immobilised ligand; 0.1 µM).
The relative abundance of `COc1ccc(C(=O)CCl)c2c1C(=O)CO2` is reported as 0% (Fosb/Jund, ΔFosB bZIP domain (Mus musculus, UniProt P13346+P15066); intact mass LC-MS, measured: unmodified JUND bZIP; concentration not given; baseline: total JUND species).
